Measured values from different studies.
± marks the error that the study gave.
Target: Metallo-beta-lactamase type 2 (Serratia marcescens, UniProt P52699)
UniProt P52699, sequence (whole entry, looked up): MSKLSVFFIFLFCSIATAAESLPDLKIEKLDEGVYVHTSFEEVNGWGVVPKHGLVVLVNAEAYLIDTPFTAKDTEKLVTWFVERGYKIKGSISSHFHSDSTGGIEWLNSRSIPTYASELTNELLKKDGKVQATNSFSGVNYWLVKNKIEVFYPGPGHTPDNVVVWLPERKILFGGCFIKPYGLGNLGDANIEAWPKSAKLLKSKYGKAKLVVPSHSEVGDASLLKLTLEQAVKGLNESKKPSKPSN
Action: inhibitor

O=C(O)c1ncsc1-c1ccccc1  IC50 (10 min preincubation, added: FC5 fluorogenic substrate): 57.5 µM
CC(C)C(=O)Nc1cccc(-c2nn[nH]n2)c1  IC50 (10 min preincubation, added: FC5 substrate): > 100 µM
CN(C)c1ccc2c(c1)C(=O)N(C(CS)C(N)=O)C2=O (stereo not drawn)  IC50 (enzyme activity; pH 7.0, added: chromacef 25 µM): 0.51 ± 0.07 µM
CN[C@H](CC(C)C)C(=O)N[C@H]1C(=O)N[C@@H](CC(N)=O)C(=O)N[C@H]2C(=O)N[C@H]3C(=O)N[C@H](C(=O)N[C@H](C(=O)O)c4cc(O)cc(O)c4-c4cc3ccc4O)[C@H](O)c3ccc(c(Cl)c3)Oc3cc2cc(c3O[C@@H]2O[C@H](CO)[C@@H](O)[C@H](O)[C@H]2O[C@H]2C[C@](C)(NCc3ccc(C(=O)OCCCCCCN(Cc4ccccn4)Cc4ccccn4)cc3)[C@H](O)[C@H](C)O2)Oc2ccc(cc2Cl)[C@H]1O  IC50 (enzyme activity, nitrocefin absorbance; added: nitrocefin): 4 ± 1.7 µM
O=C(O)C(c1ccccc1)n1cnnn1 (stereo not drawn)  IC50 (10 min preincubation, added: FC5 fluorogenic substrate): 526 µM
C[C@H](CS)C(=O)Nc1ccccc1-c1nnn(Cc2ccccc2)n1  IC50 (10 min preincubation, added: FC5 substrate): 1.36 µM
O=C(O)c1cccc(CP(=O)(O)O)n1  IC50 (enzyme activity; 10 min preincubation, added: nitrocefin substrate): 3.88 µM
Cn1nnc(-c2ccccc2NC(=O)CCS)n1  IC50 (10 min preincubation, added: FC5 substrate): 4.68 µM
CC(C)C1=CCC(C(=O)O)C(C(=O)O)C1 (stereo not drawn)  IC50 (10 min preincubation, added: FC5 fluorogenic substrate): 49.8 µM

Excerpt of the above:
CC(C)C1=CCC(C(=O)O)C(C(=O)O)C1 (stereo not drawn)  IC50 (10 min preincubation, added: FC5 fluorogenic substrate): 49.8 µM
